Experimental data from different studies.
Values joined by “and” are separate records of one study, mostly repeats; a detail may differ. ± marks the error that the study gave.
UCHL1: Ubiquitin carboxyl-terminal hydrolase isozyme L1 (UCHL1, Homo sapiens, UniProt P09936)
Sequence of UniProt P09936 (whole entry, looked up): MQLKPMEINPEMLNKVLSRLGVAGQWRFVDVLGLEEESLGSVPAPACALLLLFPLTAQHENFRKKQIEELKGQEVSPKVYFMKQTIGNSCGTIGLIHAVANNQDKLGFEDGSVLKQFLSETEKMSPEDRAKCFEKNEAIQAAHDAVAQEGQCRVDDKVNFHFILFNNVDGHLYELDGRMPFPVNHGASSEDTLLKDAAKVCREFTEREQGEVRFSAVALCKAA

O=c1[nH]cc(F)c(=O)[nH]1 gave a viability of 97.37 ± 0.9% (MCF7; CCK-8; 50 µM, 48 (unit not given); baseline: untreated control).
With COc1ccc(S(=O)(=O)ON=C2C=C(C)C(=O)C(C)=C2)cc1 the CC50 was 21.7 µM (MCF7; cell viability).
O=[N+]([O-])c1cc(I)c(O)c(C=NNc2ccccc2)c1 gave a viable cells of 37.9% (MCF7; Muse annexin V; IC50, 24 h).
With CC(=O)c1nn(-c2ccc(Cl)cc2)/c(=N/N=C(\C)c2ccc(NC(=O)c3ccccc3)cc2)s1 the viability was 11.6% and 3.79% (MCF7; 0.625 µM).
Under cell viability, CC[C@H](C)[C@H](NC(=O)[C@H](CC(=O)O)NC(=O)[C@H](CCC(=O)O)NC(=O)[C@@H](N)CC(N)=O)C(=O)N[C@@H](CC(=O)O)C(=O)N[C@@H](CCC(N)=O)C(=O)N[C@@H](CCSC)C(=O)N[C@@H](Cc1ccccc1)C(=O)N[C@@H](CO)C(=O)N[C@H](C(=O)N[C@@H](CC(C)C)C(=O)N[C@@H](CC(C)C)C(=O)NCC(=O)N[C@@H](CCC(=O)O)C(=O)N[C@@]1(C)CCCC=CCCC[C@@](C)(C(=O)N[C@@H](CCC(N)=O)C(=O)N[C@@H](CO)C(=O)O)NC(=O)[C@H](CC(C)C)NC(=O)[C@H](CC(C)C)NC(=O)[C@H](CC(=O)O)NC1=O)[C@@H](C)O is recorded as “not toxic” (MCF7; 40 µM, 24, 48, 72 h).
With CCc1ccc(NC(=O)C(C#N)=Cc2cccnc2)cc1 the labelling was 32.4% (UCHL1; covalent, intact protein LC-MS; 12.5 µM).
With CC(=O)OC[C@H]1O[C@@H]([S-])[C@H](OC(C)=O)[C@@H](OC(C)=O)[C@@H]1OC(C)=O.CCP(CC)CC.[Au+] the EC50 was 0.05 µM (MCF7; cytotoxicity; 5 days).
For C[C@]12CC[C@@H]3c4ccc(O)cc4C[C@@H](CCCCCCCCC[S+]([O-])CCCC(F)(F)C(F)(F)F)[C@H]3[C@@H]1CC[C@@H]2O (some centres unmarked), the viability was 51.4% and 48.8% and 42.5% (MCF7; CCK-8; 200 nM; baseline: untreated).
For CCCCCCCCCC(=O)N[C@@H](Cc1c[nH]c2ccccc12)C(=O)N[C@H](CC(N)=O)C(=O)N[C@@H](CC(=O)O)C(=O)N[C@@H]1C(=O)NCC(=O)N[C@@H](CCCN)C(=O)N[C@@H](CC(=O)O)C(=O)N[C@H](C)C(=O)N[C@@H](CC(=O)O)C(=O)NCC(=O)N[C@H](CO)C(=O)N[C@@H]([C@H](C)CC(=O)O)C(=O)N[C@@H](CC(=O)c2ccccc2N)C(=O)O[C@@H]1C, the EC50 was over 64 µM (MCF7; cytotoxicity; 5 days, 5% FBS).
With O=C(CCl)c1c(-c2ccccc2)[nH]c2ccccc12 the labelling was 57.6% (UCHL1; covalent, intact protein LC-MS; 12.5 µM).
For CC/C(=C(/c1ccc(OCCNC)cc1)c1ccc(B2OC(C)(C)C(C)(C)O2)cc1)c1ccccc1, the cell growth was 31% (MCF7; 5 µM; baseline: vehicle).

Some of these lines once more:
For CCCCCCCCCC(=O)N[C@@H](Cc1c[nH]c2ccccc12)C(=O)N[C@H](CC(N)=O)C(=O)N[C@@H](CC(=O)O)C(=O)N[C@@H]1C(=O)NCC(=O)N[C@@H](CCCN)C(=O)N[C@@H](CC(=O)O)C(=O)N[C@H](C)C(=O)N[C@@H](CC(=O)O)C(=O)NCC(=O)N[C@H](CO)C(=O)N[C@@H]([C@H](C)CC(=O)O)C(=O)N[C@@H](CC(=O)c2ccccc2N)C(=O)O[C@@H]1C, the EC50 was over 64 µM (MCF7; cytotoxicity; 5 days, 5% FBS).
